Results gathered from unrelated publications.
Parts stem from different laboratories: compare values within a part only.

Set 1
Target: Histone acetyltransferase KAT6A, both winged helices, GST fusion (KAT6A, Homo sapiens, UniProt Q92794, residues 1-181)
Method: protein binding microarray
Form: double-stranded DNA, one strand shown
Medium: in vitro
Tested at: not given
Setting: 8-mer, flanks averaged, mean of 2 arrays, mostly near background
Baseline: not given
Direction: higher = stronger binding
Target sequence (chain): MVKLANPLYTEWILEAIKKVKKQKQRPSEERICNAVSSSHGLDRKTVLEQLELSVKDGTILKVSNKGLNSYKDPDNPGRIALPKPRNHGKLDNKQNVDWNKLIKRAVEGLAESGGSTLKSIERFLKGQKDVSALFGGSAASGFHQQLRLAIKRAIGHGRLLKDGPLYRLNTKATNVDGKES
`AGATGTGG` gave an E-score of -0.229.
With `AGTTAAAC` the E-score was -0.0795.
`AGGAAACA` gave an E-score of -0.164.
The E-score of `AAGGATAT` is reported as -0.0335.
`ACAGTGAC` gave an E-score of 0.0515.
The E-score of `AGGAGCCG` is reported as 0.00775.
`AGATCAGC` gave an E-score of 0.0292.
`CCGCGCAA` gave an E-score of 0.293.
The E-score of `ACTTGGCC` is reported as -0.129.
`GATACAAC` has an E-score of 0.0817.
With `ACCTAACT` the E-score was -0.0862.
The E-score of `CATATACC` is reported as 0.0233.
The E-score of `ATGGCCAT` is reported as -0.163.
`GACGCGAC` has an E-score of 0.221.
`GACACAAC` gave an E-score of -0.0936.
The E-score of `GTCTCAGA` is reported as -0.125.
`AATAACCG` has an E-score of 0.151.
`CAACACGC` gave an E-score of 0.0623.
For `CGCACGGC`, the E-score was 0.307.

Set 2
Target: RNA binding protein fox-1 homolog 2, RRM domain, GST-SBP tag (RBFOX2, Homo sapiens, UniProt O43251-10, residues 100-194)
Method: RNA Bind-n-Seq
Form: RNA
Medium: in vitro
Tested at: 365 nM
Setting: natural RNA segment, single round, ends assumed
Baseline: no-protein control
Direction: higher = stronger binding
Shared flanks, not repeated: GGGAGUUCUACAGUCCGACGAUC … UGGAAUUCUCGGGUGCCAA
Construct (chain): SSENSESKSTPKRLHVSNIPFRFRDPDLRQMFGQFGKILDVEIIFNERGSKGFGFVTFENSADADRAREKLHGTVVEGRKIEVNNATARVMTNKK
`AUCUAAUGGGACCAGCUUGUGAAGUUUAUAGCCUUAAAGAAAUCUCUGUGCUAAGUUUUAGAACAGUUUAGAACCAUGCAGGGAUGCCGAGAGUCUGGAGUUAGCCCAGU` — result for “RBNS enrichment (R)”: 0.773.
`CCAGUGAGUGAGCAAACCACUUUAGGCCAGGAGAAUUACAUAUUCUCUAGAGGCCAAGCAUCUGAUGAAAAGAGCCUGCCUAGAGAUUUUAUUCCGGCAGCACAUAAACA`: “RBNS enrichment (R)” 0.495.
`AAAGGGAACUCAAAACUCUUCCACAUUCUUCCCGAGGAAAUCGACGACGUCCAUCCGUCCCACAGAGUGGGACCGACCGCCCCUGCUGCUCCAGCCAGGGCCCCUGCGCU`: “RBNS enrichment (R)” 0.286.
Under “RBNS enrichment (R)”, `CCCAGCAAUGAGGUCCCACCACACCAGGCCACACCCCCCCACUCUUCUGGAGGUGAAGGCCCAGGGCGUGGGGGAGCAGGGAUCAGGAGCACCUGUGGCUUGGUGGAGGC` is recorded as 1.07.
For `UGAAUUUAUGCCUUUUGUAAACAUGAUAGGUAUAAAUGUCUUAUAAACAUUCUGGAGUAUGUAUAGCUUUAAUGAAUGAAAUUUAAUGGACCUGAUUAAAAUGAAGGGAU`, “RBNS enrichment (R)” read 0.551.
`CUGUCCCGACACAGCGACGCUCCCCUGAGAGGUUUCUGGGGCCCGCUGCGUGCCAUCACUCAACCAUAACACUUGAUGCCGUUUCUUUCAAUAUUUAUUUCCAGAGUCCG`: “RBNS enrichment (R)” 0.506.
For `GCCAGUCUCUGAGGACGCUGCCACCCUAGAGCACAUGCAUGCCCAGCCAUUCUUCCUGCUUCUGGCCUCGGAGCUGCUUGUCUCCAGAUGCCCUCCUGAAACCAUGAGAA`, “RBNS enrichment (R)” read 20.6.
`UCUGGGAAGGCCUUGCCCCCACGGGCUUUACCCUUUCCUGUGGGCUCUCUCCCUGACACAUUUGUUAAAAAUCAAACCUGAAUAAAACUACAAGUUUAAUAUGAAGCCCC`: “RBNS enrichment (R)” 0.745.
`AAAUAAAAUCUAUUCUCUUAGAAGUACAGAUCAUUUUGAAACUUAAUGUGAUAUUUGUUGACAUUUUCCUGGCUAAUAUUUAAAAUUCAUUGGAAAAGAUUUUCAAAAUU` — result for “RBNS enrichment (R)”: 0.467.
`CCUGAGCAUGGGGUUCCGGCUGUCACUCAGGCUCAGAGACCCAGCUGGGCUGGGCUUUGCCUUUCAGCAUUCUGUCUGUCUCACUGGUCAUGCAUUGUUCCAUAGUCGCC` — result for “RBNS enrichment (R)”: 0.566.
`GGAAGGUGAGAUGGCCAGUUUGAAGCCUGUGCCUCCCAGCUUAAAUCCUAGCAGGAGAGAGGCUCUGGGGCAGCCCCCAUGGGCUCCUGCCCCUUUCAGGCCUACAGCCA`: “RBNS enrichment (R)” 0.274.
`CCAGAUUGUUUCUGCUUUGGGUGCAGCUGUUUAGUUCAGAGUUAUAUUACAGAGAAUUAUUUUCUGAGAUAAUCUUAAACUAGAAUGUUCAAAACUAAUUGAUAAUUGAA`: “RBNS enrichment (R)” 0.585.

Set 3
Target: Fragile X messenger ribonucleoprotein 1, C-terminal low-complexity region (Fmr1, Mus musculus, UniProt P35922)
Method: RNA Bind-n-Seq
Form: RNA
Medium: in vitro
Tested at: 200 nM
Setting: whole 134-nt RNA, ends assumed
With: 150 mM LiCl
Baseline: input library
Direction: higher = stronger binding
Each molecule: 7-deaza-guanosine replaces G
Shared flanks, not repeated: GGGAGUUCUACAGUCCGACGAUC … UGGAAUUCUCGGGUGUCAAGG
The log2 enrichment of `CAAGUCCUGUGCUACACAUCGUAUGUACCGAAUCGGGAAAGGGAAAGGGGAAAGGAAAGUAUUAUGUUACGCCGUUCGGAUCUGCACUUC` is reported as -0.971.
`UGGCCCUGGUGGCAUGCUGGGAGGAAGAGGUGGCCUCAUGGAUCGUGGUGGUCCCGGUGGAAUGUUCAGAGGUGGCCGUGGUGGAGACAG` has a log2 enrichment of -0.0622.
The log2 enrichment of `CCUCAAGUCCUGUGCUACACAUCGUAUGUACCGAAUCGGAAGGAAGGGGAAGGAAAGUAUUAUGUUACGCCGUUCGGAUCUGCACUUCCA` is reported as -1.03.
`AGUCCUGUGCUACACAUCGUAUGUACCGAAUCGGGUUUUGGGUUUUGGGGUUUUGGGGAAAGUAUUAUGUUACGCCGUUCGGAUCUGCAC` gave a log2 enrichment of -0.415.
For `AGUCCUGUGCUACACAUCGUAUGUACCGAAUCGGCCCCCCGGCCCCCCGGCCCCCCGGAAAGUAUUAUGUUACGCCGUUCGGAUCUGCAC`, the log2 enrichment was 1.27.
`AAGUCCUGUGCUACACAUCGUAUGUACCGAAUCGGGAAAAGGGAAAAGGGAAAAGGAAAGUAUUAUGUUACGCCGUUCGGAUCUGCACUU` gave a log2 enrichment of -0.683.
With `AAGUCCUGUGCUACACAUCGUAUGUACCGAAUCGGGGAAAAAGGGGUGGGGUGGGGAAAGUAUUAUGUUACGCCGUUCGGAUCUGCACUU` the log2 enrichment was -1.05.
For `CAAGUCCUGUGCUACACAUCGUAUGUACCGAAUCGGGUUUGGGAAAGGGUUUGGGAAAGUAUUAUGUUACGCCGUUCGGAUCUGCACUUC`, the log2 enrichment was -1.71.
For `UCAAGUCCUGUGCUACACAUCGUAUGUACCGAAUCGGGAAAGGGAAAGGAAAGGGAAAGUAUUAUGUUACGCCGUUCGGAUCUGCACUUC`, the log2 enrichment was -0.959.
With `UCCUCAAGUCCUGUGCUACACAUCGUAUGUACCGAAUCGGCGGGCGGGCGGAAAGUAUUAUGUUACGCCGUUCGGAUCUGCACUUCCAGC` the log2 enrichment was 0.819.
The log2 enrichment of `UGGGAGGUGGAUUUUGUUUAUUUUUUUAGCGCAUUUCCAGGGGUGGGAAUUUUUUUUUAAUAUGUGUCAUGAAUAAAGUUGUUUUUGAAA` is reported as 0.453.

Set 4
Target: Interferon regulatory factor 5, full length, phosphomimetic (IRF5, Homo sapiens, UniProt Q13568-2, residues 1-514, K96S/S451D/S453D/S456D/S462D)
Method: protein-binding microarray
Form: double-stranded DNA, one strand shown
Medium: in vitro
Tested at: 250 nM
Setting: 60-bp whole probe
With: salmon DNA 0.4 mg/ml
Baseline: random background probes
Direction: higher = stronger binding
Shared flanks, not repeated: GCCTAGCAC … GTCTTGATTCGCTTGACGCTGCTG
`AGTAGCTGGGATTACAGGCAGTGCTAG` gave a log fluorescence of -0.701 z-score.
The log fluorescence of `GACGGTATCGACTATCGGTACGTGCTA` is reported as 6.76 z-score.
`GACGGTCTGGGGTTTCGGGACGTGCTA` gave a log fluorescence of 0.895 z-score.
For `TTAGGACTGATTATCCTTTAGTGCTAG`, the log fluorescence was -0.0424 z-score.
The log fluorescence of `TCAGCTCCCTTTCTCTCACTGTGCTAG` is reported as 0.692 z-score.
For `AGGGCGGCTGAGTCAGCACAGTGCTAG`, the log fluorescence was -0.745 z-score.
`CCAGTTGAGCACAGGAAAGTGTGCTAG` gave a log fluorescence of -0.19 z-score.
`TTAGATTGCAGTATCGATTAGTGCTAG` has a log fluorescence of 6.01 z-score.
With `TCACTTTCCTTTATGTAACTGTGCTAG` the log fluorescence was 2.68 z-score.
For `TTAGGTATCCTTTCCCTTTAGTGCTAG`, the log fluorescence was 0.612 z-score.
`TTCAGTTTTCCTCTGTCATTGTGCTAG` gave a log fluorescence of 1.39 z-score.
`TTCTTAATGCTTCTGGGCCAGTGCTAG` has a log fluorescence of 0.0288 z-score.
`TTAGGACTGGGTATCGGTTAGTGCTAG` has a log fluorescence of 4.41 z-score.
The log fluorescence of `GAGCAGAGGCTGATGTATGTGTGCTAG` is reported as -0.835 z-score.
The log fluorescence of `TTAGATTTCCGTTTCGATTAGTGCTAG` is reported as 8.97 z-score.
`TCACCTGTCTACATGGGACTGTGCTAG` has a log fluorescence of -0.135 z-score.
`TTAGGTTTCGGTCCCGGTTAGTGCTAG` has a log fluorescence of 9.93 z-score.
`TTAGGTAACGGGTATCGGTTAGTGCTA` gave a log fluorescence of 4.13 z-score.
`TTAGGTATCGGTCTCGGTGAGTGCTAG` gave a log fluorescence of 6.68 z-score.

A few entries again (set 1):
The E-score of `ACTTGGCC` is reported as -0.129.
`AATAACCG` has an E-score of 0.151.
`GACGCGAC` has an E-score of 0.221.
`CCGCGCAA` gave an E-score of 0.293.
The E-score of `CATATACC` is reported as 0.0233.
`GATACAAC` has an E-score of 0.0817.
`AGGAAACA` gave an E-score of -0.164.
For `CGCACGGC`, the E-score was 0.307.
With `AGTTAAAC` the E-score was -0.0795.
